Results pooled from the literature.
Lines come from different studies, so protocols differ. Numbers after ± are the reported error.
B1: PUX5 (Arabidopsis thaliana, UniProt Q7Y175); chain MATETNENLINSFIEITSSSREEANFFLESHTWNLDAAVSTFLDNDAAAAAEPNPTGPPPPSSTIAGAQSPSQSHSPDYTPSETSPSPSRSRSASPSSRAAPYGLRSRGGAGENKETENPSGIRSSRSRQHAGNIRTFADLNRSPADGEGSDSDEANEYYTGGQKSGMMVQDPKKVKDVDELFDQARQSAVDRPVEPSRSASTSFTGAARLLSGEAVSSSPQQQQQEQPQRIMHTITFWLNGFTVNDGPLRGFSDPENAAFMNSISRSECPSELEPADKKIPVHVDLVRRGENFTEPPKPKNPFQGVGRTLGASGSGSSSAPQASSAPMNVAPAPSRGLVVDPAAPTTSIQLRLADGTRLVSRFNNHHTVRDVRGFIDASRPGGSKEYQLLTMGFPPKQLTELDQTIEQAGIANAVVIQKF
B2: CFH domains 1108-1231 L1189R (Homo sapiens, UniProt P08603); sequence looked up; chain KCGPPPPIDNGDITSFPLSVYAPASSVEYQCQNLYQLEGNKRITCRNGQWSEPPKCLHPCVISREIMENYNIALRWTAKQKRYSRTGESVEFVCKRGYRLSSRSHTLRTTCWDGKLEYPTCAKR
Sequence of UniProt P35222 (whole entry, looked up): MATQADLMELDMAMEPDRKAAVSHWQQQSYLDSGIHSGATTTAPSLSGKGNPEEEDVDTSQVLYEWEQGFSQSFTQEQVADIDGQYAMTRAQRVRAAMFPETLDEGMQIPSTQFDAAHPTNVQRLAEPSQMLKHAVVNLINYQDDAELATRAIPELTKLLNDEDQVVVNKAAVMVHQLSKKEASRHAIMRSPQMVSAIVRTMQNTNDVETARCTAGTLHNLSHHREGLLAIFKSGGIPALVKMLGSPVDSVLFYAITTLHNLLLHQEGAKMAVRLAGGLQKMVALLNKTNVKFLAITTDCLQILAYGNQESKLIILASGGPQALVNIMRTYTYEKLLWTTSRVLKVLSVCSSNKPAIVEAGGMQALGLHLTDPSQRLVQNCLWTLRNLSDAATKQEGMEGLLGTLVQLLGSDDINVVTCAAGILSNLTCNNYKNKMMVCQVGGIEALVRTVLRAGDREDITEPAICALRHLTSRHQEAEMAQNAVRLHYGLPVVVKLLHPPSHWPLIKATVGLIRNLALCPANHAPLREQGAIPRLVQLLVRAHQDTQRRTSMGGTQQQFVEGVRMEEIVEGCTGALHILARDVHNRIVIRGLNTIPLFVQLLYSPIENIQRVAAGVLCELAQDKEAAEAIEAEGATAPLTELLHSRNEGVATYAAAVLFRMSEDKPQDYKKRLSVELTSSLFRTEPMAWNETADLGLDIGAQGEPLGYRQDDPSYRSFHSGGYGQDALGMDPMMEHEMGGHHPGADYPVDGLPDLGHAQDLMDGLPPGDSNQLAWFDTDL
Sequence of UniProt P01024 (whole entry, looked up): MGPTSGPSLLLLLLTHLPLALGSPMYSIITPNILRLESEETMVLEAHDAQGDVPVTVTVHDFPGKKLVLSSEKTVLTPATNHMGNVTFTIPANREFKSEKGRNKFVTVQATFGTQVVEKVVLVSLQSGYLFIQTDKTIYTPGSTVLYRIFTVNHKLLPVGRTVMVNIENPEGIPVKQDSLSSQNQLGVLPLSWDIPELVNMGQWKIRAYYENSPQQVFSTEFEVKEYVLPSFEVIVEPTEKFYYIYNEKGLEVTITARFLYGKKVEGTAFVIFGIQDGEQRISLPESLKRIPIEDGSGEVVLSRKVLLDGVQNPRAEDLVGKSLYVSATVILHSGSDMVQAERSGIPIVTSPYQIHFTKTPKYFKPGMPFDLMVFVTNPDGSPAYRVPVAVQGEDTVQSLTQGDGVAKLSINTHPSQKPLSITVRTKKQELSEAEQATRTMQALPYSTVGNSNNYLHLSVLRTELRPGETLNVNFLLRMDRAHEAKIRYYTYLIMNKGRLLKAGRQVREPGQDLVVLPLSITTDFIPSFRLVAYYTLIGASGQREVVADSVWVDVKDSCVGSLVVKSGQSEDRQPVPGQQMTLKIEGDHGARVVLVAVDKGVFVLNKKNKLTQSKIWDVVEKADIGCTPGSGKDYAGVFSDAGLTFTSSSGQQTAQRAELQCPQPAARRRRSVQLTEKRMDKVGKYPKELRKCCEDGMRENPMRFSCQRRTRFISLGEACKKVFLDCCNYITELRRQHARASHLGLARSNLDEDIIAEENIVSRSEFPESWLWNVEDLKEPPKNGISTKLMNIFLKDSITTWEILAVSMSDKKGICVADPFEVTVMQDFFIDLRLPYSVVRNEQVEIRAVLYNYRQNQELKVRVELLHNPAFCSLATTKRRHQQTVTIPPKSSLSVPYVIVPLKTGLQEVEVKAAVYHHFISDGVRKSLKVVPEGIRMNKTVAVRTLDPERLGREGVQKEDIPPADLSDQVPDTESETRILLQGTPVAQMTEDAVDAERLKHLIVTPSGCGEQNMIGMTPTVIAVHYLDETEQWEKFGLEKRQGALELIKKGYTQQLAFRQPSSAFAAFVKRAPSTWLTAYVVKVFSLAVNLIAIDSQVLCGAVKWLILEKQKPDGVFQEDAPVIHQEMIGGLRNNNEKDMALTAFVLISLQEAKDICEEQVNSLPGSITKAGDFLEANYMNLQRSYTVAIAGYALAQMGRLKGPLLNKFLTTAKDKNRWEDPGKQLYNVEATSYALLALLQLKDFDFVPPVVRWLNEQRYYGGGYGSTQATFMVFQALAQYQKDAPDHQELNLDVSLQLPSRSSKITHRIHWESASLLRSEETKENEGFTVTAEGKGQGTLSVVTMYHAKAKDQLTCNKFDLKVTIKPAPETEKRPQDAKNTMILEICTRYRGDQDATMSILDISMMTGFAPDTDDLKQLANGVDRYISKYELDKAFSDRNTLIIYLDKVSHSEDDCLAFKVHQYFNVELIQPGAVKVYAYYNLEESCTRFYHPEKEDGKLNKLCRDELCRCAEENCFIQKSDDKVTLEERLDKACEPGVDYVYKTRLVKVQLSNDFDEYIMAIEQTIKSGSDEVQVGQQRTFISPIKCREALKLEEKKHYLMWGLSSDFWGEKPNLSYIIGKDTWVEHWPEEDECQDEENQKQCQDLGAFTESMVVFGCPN
Sequence of UniProt P26039 (whole entry, looked up): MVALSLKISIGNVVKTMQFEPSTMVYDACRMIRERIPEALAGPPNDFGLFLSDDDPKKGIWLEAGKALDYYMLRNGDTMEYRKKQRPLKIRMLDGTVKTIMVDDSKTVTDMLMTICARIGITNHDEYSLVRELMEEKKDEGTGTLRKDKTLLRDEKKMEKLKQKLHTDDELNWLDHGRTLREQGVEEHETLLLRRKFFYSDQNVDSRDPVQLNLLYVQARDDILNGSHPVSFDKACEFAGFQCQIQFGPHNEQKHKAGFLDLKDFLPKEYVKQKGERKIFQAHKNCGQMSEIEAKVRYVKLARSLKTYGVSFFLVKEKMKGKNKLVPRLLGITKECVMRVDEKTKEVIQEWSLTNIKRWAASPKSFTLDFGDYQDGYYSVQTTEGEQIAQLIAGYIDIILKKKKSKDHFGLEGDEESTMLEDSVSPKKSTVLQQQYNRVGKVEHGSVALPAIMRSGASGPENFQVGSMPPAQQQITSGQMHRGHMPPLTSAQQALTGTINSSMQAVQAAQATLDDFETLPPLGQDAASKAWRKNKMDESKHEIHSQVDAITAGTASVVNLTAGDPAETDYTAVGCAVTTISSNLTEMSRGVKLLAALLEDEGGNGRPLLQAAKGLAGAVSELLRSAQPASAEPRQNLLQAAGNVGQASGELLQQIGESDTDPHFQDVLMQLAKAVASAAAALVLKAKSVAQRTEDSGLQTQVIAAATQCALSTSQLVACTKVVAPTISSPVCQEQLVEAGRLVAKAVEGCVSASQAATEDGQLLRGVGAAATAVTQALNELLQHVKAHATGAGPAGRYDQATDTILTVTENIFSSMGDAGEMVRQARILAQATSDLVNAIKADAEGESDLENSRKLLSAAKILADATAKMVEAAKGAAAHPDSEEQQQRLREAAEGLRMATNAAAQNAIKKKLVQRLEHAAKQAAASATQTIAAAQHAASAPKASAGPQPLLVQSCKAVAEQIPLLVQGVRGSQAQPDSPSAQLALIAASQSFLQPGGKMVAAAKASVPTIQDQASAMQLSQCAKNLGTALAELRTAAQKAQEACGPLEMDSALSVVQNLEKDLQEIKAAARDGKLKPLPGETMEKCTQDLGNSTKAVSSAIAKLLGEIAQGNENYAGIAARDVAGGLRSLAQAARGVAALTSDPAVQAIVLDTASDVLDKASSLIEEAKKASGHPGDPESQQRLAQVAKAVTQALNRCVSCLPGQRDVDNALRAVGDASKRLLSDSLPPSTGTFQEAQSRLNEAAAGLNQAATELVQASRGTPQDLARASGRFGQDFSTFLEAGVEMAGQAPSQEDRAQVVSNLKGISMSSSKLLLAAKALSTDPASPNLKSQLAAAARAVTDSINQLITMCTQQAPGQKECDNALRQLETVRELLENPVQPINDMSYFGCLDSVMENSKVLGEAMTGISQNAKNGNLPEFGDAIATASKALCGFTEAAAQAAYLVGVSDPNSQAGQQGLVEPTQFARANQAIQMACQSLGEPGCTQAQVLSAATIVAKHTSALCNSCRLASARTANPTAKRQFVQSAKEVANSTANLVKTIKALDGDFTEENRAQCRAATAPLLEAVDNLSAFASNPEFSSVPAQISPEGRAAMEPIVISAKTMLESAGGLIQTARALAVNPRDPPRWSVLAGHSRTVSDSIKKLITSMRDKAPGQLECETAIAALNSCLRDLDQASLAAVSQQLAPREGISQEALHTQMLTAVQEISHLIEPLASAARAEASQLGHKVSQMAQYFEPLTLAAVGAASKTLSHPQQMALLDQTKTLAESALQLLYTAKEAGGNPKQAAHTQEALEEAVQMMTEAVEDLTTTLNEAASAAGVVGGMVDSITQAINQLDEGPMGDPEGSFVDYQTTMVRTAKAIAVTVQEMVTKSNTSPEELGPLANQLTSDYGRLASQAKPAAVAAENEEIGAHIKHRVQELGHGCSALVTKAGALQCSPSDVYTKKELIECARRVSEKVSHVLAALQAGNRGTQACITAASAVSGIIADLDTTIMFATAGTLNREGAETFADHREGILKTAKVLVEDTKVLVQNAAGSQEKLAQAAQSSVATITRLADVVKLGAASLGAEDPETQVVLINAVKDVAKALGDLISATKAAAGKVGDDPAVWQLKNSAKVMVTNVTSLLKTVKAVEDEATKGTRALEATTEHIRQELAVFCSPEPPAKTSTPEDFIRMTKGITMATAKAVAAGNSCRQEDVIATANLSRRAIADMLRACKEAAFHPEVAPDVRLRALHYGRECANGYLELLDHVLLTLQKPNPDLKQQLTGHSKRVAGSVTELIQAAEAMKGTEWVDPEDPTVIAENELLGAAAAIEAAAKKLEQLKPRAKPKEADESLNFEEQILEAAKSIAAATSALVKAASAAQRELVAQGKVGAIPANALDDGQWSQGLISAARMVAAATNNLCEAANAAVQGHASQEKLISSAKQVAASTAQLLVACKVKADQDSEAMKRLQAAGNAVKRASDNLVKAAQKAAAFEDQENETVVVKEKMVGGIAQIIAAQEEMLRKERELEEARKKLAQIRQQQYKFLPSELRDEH

GSGAGKESYV
binding intensity (human MAGI1-2/6 PDZ construct (MBP fusion); automated holdup; peptide, crude extract; concentration not given, uncorrected, unit not given; reference: biotin control resin, higher = stronger binding): 0.446

MBL-A mature, hydroxylysine, hydroxyproline in collagen (Rattus norvegicus, UniProt P19999)
Kd (C1r/C1s full-length tetramer (Homo sapiens); SPR; added: CaCl2 140 mM): 0.036 µM

rituximab IgG
Kd (CD20 peptide fragment, cyclic/C-terminal amide; BLI): 2.21 µM

B1 (PUX5)
Kd (CDC48A (Arabidopsis thaliana, UniProt P54609); ITC; 25 °C): 2.5 ± 0.2 µM

KLLMIIHDRREFAKFEKEKMNAKWDTGENPIYKSAINNFKNPNYGRKAGL (ITGB1 752-801 Q778G/P786A (Homo sapiens, UniProt P05556-5); sequence looked up)
Kd (Tln1 309-405 (Mus musculus, UniProt P26039); NMR titration): 388 µM

HGEDFSKVSQNPILTSLLQITGNG (MED1 peptide; N-terminal 5-FAM)
Kd (PPARG 202-477 (Homo sapiens, UniProt P37231-2); FP; peptide): 1.43 µM

GSGAGKETEC
binding intensity (human MAGI1-2/6 PDZ construct (MBP fusion); automated holdup; peptide, crude extract; concentration not given, uncorrected, unit not given; reference: biotin control resin, higher = stronger binding): 0.214

B2 (CFH domains 1108-1231 L1189R)
Kd (C3 C3dg 955-1303 (Homo sapiens, UniProt P01024); SPR): 1.3 ± 0.1 µM

petF ferredoxin (Synechocystis sp. PCC 6803, UniProt P27320)
Kd (narB M149A (Synechococcus sp. PCC 7942); UV-visible difference titration): 6.8 ± 1.3 µM

BAK1 BH3, N-acetyl; C-terminal amide (Homo sapiens)
Kd (MBP/MCL1 MCL-1, Alexa 647 label (Homo sapiens); MST): 0.0205 ± 0.008 µM

CDH1 fragment (Homo sapiens) (sequence not shown)
Kd (CTNNB1 (Homo sapiens, UniProt P35222); BLI): 0.00497 ± 0.00079 µM

FBLN4, N-glycosylated (Homo sapiens, UniProt O95967)
Kd (ELN 27-724 (Homo sapiens, UniProt P15502-2); SPR): 0.0226 µM

LPDTDDRHRIEEKRKRTYETFKSIAKKSPFNGP (Rela 289-321 M313A (Mus musculus, UniProt Q04207); sequence looked up)
Kd (NFKBIA 67-206 (Homo sapiens, UniProt P25963); ITC; peptide): 0.97 ± 0.05 µM

For quick reference, copied from above:
GSGAGKETEC
binding intensity (human MAGI1-2/6 PDZ construct (MBP fusion); automated holdup; peptide, crude extract; concentration not given, uncorrected, unit not given; reference: biotin control resin, higher = stronger binding): 0.214

B2 (CFH domains 1108-1231 L1189R)
Kd (C3 C3dg 955-1303 (Homo sapiens, UniProt P01024); SPR): 1.3 ± 0.1 µM
